Values quoted from earlier work as cited in several papers.
Numbered parts are unrelated; values within a part may stem from several laboratories. In brackets after ≈: the same amount, converted by molar mass.
UniProt P48039, sequence (whole entry, looked up): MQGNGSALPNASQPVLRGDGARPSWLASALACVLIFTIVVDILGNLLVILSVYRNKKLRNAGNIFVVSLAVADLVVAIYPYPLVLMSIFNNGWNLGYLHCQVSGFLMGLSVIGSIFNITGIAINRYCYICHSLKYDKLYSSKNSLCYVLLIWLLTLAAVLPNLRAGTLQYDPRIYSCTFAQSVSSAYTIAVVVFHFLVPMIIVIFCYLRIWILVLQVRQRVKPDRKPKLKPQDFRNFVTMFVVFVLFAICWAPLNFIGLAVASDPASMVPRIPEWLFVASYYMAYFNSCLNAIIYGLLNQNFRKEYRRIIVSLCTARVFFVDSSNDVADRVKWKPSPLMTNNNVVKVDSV
UniProt P22002, sequence (whole entry, looked up): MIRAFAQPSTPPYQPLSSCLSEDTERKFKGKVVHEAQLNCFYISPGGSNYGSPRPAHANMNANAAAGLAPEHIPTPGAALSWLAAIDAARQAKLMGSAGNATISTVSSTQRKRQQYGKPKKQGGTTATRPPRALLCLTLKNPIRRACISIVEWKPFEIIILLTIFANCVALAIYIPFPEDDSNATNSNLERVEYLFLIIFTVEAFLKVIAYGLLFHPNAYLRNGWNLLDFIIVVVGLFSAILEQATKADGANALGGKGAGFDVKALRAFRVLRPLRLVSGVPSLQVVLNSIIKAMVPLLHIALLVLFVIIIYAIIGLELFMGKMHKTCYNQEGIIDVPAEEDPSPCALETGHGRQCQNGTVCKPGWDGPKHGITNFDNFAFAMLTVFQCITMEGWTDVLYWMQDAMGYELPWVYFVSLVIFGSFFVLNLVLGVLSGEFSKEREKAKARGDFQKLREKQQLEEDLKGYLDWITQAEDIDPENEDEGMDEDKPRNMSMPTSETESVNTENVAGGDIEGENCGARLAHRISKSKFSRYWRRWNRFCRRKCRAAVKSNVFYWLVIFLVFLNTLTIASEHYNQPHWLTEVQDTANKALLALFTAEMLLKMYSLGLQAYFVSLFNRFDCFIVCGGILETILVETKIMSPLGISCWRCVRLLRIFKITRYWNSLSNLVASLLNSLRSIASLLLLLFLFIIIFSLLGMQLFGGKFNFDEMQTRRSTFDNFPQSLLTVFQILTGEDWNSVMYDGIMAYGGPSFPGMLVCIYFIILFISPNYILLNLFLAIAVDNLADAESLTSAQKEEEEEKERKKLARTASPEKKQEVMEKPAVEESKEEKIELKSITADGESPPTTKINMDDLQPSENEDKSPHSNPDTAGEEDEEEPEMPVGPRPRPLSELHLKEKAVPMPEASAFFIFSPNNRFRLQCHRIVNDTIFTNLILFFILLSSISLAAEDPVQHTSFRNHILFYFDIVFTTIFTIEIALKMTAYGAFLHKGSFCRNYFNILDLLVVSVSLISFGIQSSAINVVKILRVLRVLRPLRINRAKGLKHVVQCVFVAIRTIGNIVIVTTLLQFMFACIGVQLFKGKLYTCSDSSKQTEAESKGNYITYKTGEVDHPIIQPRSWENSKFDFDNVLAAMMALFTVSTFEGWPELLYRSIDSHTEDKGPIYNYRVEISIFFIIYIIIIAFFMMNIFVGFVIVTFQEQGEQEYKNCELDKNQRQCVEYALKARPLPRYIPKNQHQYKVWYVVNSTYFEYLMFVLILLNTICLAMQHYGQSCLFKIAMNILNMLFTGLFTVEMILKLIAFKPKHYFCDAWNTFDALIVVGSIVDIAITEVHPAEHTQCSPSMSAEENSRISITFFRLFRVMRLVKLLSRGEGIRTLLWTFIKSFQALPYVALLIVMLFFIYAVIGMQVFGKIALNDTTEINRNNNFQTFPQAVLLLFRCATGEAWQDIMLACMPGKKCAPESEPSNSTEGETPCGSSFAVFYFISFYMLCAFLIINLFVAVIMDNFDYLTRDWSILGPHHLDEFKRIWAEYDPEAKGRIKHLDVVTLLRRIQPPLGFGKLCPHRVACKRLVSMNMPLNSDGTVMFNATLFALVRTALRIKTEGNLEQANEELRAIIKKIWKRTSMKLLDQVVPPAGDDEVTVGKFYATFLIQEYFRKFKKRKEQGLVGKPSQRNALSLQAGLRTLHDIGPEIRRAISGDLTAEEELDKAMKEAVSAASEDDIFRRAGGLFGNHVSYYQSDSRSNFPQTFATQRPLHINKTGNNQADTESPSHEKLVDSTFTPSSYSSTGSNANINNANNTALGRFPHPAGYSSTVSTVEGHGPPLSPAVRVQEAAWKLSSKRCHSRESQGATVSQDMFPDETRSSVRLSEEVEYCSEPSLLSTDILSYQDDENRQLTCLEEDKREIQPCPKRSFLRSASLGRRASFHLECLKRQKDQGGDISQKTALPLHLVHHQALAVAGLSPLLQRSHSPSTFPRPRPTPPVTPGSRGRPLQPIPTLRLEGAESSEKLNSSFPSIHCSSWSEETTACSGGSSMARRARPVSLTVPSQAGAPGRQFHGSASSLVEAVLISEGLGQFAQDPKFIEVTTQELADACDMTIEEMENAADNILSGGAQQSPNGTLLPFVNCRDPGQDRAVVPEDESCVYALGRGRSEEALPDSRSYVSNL

Sample 1
Target: HLA class I histocompatibility antigen, C alpha chain, allele C*04:01 (Homo sapiens, UniProt P10321)
Read-out: peptide-MHC binding
Molecule type: peptide
`RLPAYAPLL` has an IC50 of 0.294 µM.
The IC50 of `RPPYSSYGY` is reported as > 20 µM.
With `KMFNRASYF` the IC50 was 0.848 µM.
With `MTDVDLNYY` the IC50 was 20 µM.
The IC50 of `YSLEYFQFV` is reported as 20 µM.
The IC50 of `NRDVSFQDL` is reported as 20 µM.
`RYRQVLSPL` gave an IC50 of > 5 µM.
With `RMFKRVFNM` the IC50 was > 5 µM.
For `RRRPVTRPL`, the IC50 was > 5 µM.
With `RQHPGLFPF` the IC50 was > 5 µM.
For `YAYNSSLLY`, the IC50 was 20 µM.
`RYAYTSVEF` gave an IC50 of 20 µM.
For `LPADPASVL`, the IC50 was > 20 µM.

Mixed results
The TD50 of `CN(N=O)c1ccc(F)cc1` is reported as 0.255 mg/kg/day (carcinogenicity; F344 rat, male; oesophageal tumours).
The Km of `CC(C)(O/N=C(\C(=O)N[C@@H]1C(=O)N2C(C(=O)[O-])=C(C[N+]3(CCNC(=O)c4ccc(O)c(O)c4Cl)CCCC3)CS[C@H]12)c1csc(N)n1)C(=O)O` is reported as > 500 µM (KPC-2; hydrolysis by enzyme, substrate).
For `CN[C@@]1(c2ccccc2Cl)CCCCC1=O`, Cmax read “increased” (mouse; dose not given, added: 1-ABT and ticlopidine; relative to: without CYP inhibitors).
`CCOC(=O)N1c2ccc(C(F)(F)F)cc2[C@@H](N(Cc2cc(C(F)(F)F)cc(C(F)(F)F)c2)c2ncc(OCCCC(=O)O)cn2)C[C@H]1CC`: “time to steady state” 1 to 2 weeks (human; daily dosing).
For `CCN1CCN(C(=O)N[C@@H](C(=O)N[C@@H]2C(=O)N3[C@@H]2SC(C)(C)[C@@H]3C(=O)O)c2ccccc2)C(=O)C1=O`, the MIC was 8 µg/mL (≈ 15.5 µM) (Escherichia coli; bacterial growth; colistin-resistant).
For `CC(O)CN1CCN(CC(=O)[O-])CCN(CC(=O)[O-])CCN(CC(=O)[O-])CC1.[Gd+3]` (centres unmarked), the relaxivity r1 was 3.7 mM⁻¹ s⁻¹ (human plasma; 310 K, 3 T).
`c1cc([C@H]2CC[C@]3(CC2)OO[C@]2(O3)C3CC4CC(C3)CC2C4)ccc1OCCN1CCOCC1` gave an oral bioavailability of 76% (male Sprague-Dawley rat; oral, 10 mg/kg).
`COc1ccc2[nH]cc(CCNC(C)=O)c2c1` has a Hill coefficient of 0.7 (MTNR1A (Homo sapiens, UniProt P48039)).
With `CCCSc1ccc2nc(NC(=O)OC)[nH]c2c1` the IC50 was 200 µg/mL (Trichuris muris; adult worms).
For `C=C[C@@H]1C[C@]1(NC(=O)[C@@H]1C[C@@H]2CN1C(=O)[C@H](C(C)(C)C)NC(=O)O[C@@H]1C[C@H]1CCCCCc1nc3ccc(OC)cc3nc1O2)C(=O)NS(=O)(=O)C1CC1`, the efflux ratio was ~30 (rat P-glycoprotein; LLC-PK1 transfected with rat P-glycoprotein; 1 µM; relative to: B-A over A-B permeability).
For `COCCN(CCOC)N=O`, the tumour incidence was 100% (item: nasal tumours and hepatocellular carcinomas; Sprague-Dawley rats; dose not given).
`CCOC(=O)C1=C(C)NC(C)=C(C(=O)OC)C1c1cccc([N+](=O)[O-])c1` (centres unmarked) gave an IC50 of 0.00072 µM (Cacna1c (Rattus norvegicus, UniProt P22002); inhibitor; historical measurement).
`C[C@@H](O)[C@H]1C(=O)N2C(C(=O)O)=C(S[C@@H]3CN[C@H](C(=O)N(C)C)C3)[C@H](C)[C@H]12` gave an MIC of < 0.12 µg/mL (Escherichia coli; bacterial growth; colistin-resistant).
